Measurements collected from several papers.
Compare with care: the assays were run in different laboratories. ± marks the error that the study gave.
Chain of UniProt P10632 (whole entry, looked up): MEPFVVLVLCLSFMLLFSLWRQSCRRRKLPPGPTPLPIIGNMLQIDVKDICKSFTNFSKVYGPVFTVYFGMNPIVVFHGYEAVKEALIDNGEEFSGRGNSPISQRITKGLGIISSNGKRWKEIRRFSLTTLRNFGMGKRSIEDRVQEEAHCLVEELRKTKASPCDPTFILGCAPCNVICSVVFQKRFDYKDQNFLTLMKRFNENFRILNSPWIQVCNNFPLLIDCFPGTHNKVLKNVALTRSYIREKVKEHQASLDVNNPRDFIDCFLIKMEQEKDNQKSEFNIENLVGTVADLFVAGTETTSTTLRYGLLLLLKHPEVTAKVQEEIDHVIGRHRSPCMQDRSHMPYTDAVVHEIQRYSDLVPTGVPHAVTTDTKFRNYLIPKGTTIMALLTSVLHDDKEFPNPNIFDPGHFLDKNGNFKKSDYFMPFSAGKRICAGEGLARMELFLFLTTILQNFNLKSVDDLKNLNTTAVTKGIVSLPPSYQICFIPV

Structure (SMILES) | tested on | assay | test system | setting | endpoint | result
Cn1c(C(F)(F)F)cc(=O)n(-c2cc(Oc3cccnc3OCC(=O)O)c(Cl)cc2F)c1=O | – | – | beagle dog, female, plasma | oral capsule, 100 mg/kg/day epyrifenacil, day 1, 90-day study | Cmax | 2160 ng/mL
C[C@H]1CN(C(=O)CC#N)[C@]12CCN(c1ncnc3[nH]ccc13)C2 | – | – | healthy adults, plasma | oral, 12 mg single dose, median | Cmax | 101 ng/mL
COCCOC(=O)C1=C(C)NC(C)=C(C(=O)OC/C=C/c2ccccc2)C1c1cccc([N+](=O)[O-])c1 (stereo not drawn) | Toxoplasma gondii | parasite growth | HFF, bradyzoite, alkaline-induced | – | EC50 | 7.51 µM
Cc1cc(Nc2ncnc3ccc(NC4=NC(C)(C)CO4)cc23)ccc1Oc1ccn2ncnc2c1 | Cytochrome P450 2C8 (CYP2C8, Homo sapiens, UniProt P10632) | – | human, plasma | oral, 300 mg single, day 1, median | AUC extrapolated fraction | 1.4%
C[C@@H]1CCO[C@H]2Cn3cc(C(=O)NCc4ccc(F)cc4F)c(=O)c(O)c3C(=O)N12 | – | – | human paediatric patients, weight 6 to under sample A kg, plasma | oral, 8 mg granules, steady state, geometric mean, population PK post-hoc, N 2 | Cmax | 2570 ng/mL
C[n+]1cc2c3c(ccc2c2ccc4cc5c(cc4c21)OCO5)OCO3 | Toxoplasma gondii | bradyzoite growth | – | glutamine-induced bradyzoites, glucose-free medium | EC50 | 1.25 µM
COc1ccc(C[C@@H](C)[C@@H](C)Cc2ccc(OC)c(OC)c2)cc1OC | – | – | beagle dog male, plasma | oral, 100 mg/kg/day, day 28 | Cmax | 1440 ± 224 ng/mL
CCN1CCN(Cc2ccc(Nc3ncc(F)c(-c4cc(F)c5nc6n(c5c4)[C@H](C)CCC6)n3)nc2)CC1 | – | – | human, plasma | 400 mg multiple dosing, mean | Cmax | 355 ng/mL
CCCCC1=NC2(CCCC2)C(=O)N1Cc1ccc(-c2ccccc2S(=O)(=O)Nc2noc(C)c2C)c(COCC)c1 | – | – | healthy adult volunteers, plasma | oral, 1600 mg, single dose, fasted, crushed tablet | Cmax | 12300 ng/mL
Cc1nc(-c2cnc(NC(C)C)n(C)c2=O)ccc1Oc1ccnc(-c2cnn(C)c2)c1 | – | – | Beagle dog, male, plasma | intravenous, 1 mg/kg | Cmax | 2510 ng/mL
COc1ncc(-c2nc3c(n2C(C)C)[C@H](c2ccc(Cl)cc2)N(c2cc(Cl)cn(C)c2=O)C3=O)c(OC)n1 | – | LC-MS/MS | human, plasma | oral, 25 mg, cycle 2 day 1, high-dose arm | Cmax | 126 ng/mL
COc1ccc(-n2nc(C(N)=O)c3c2C(=O)N(c2ccc(N4CCCCC4=O)cc2)CC3)cc1 | – | – | healthy mixed-breed dogs, plasma | oral, 0.5 mg/kg every 12 h for 7 days | Cmax | 822 ± 296 ng/mL
Cl.[2H]C([2H])([2H])CC(=O)c1cnc(NC(=O)C2CC2)cc1Nc1cccc(-c2ncn(C([2H])([2H])[2H])n2)c1OC | – | geometric mean | human | oral, 25 mg single dose, fasted, liquid | Cmax | 253 ng/mL
COCCOc1cnc2ccn([C@H](C)c3nnc4c(F)cc(-c5cnn(C)c5)cn34)c(=O)c2c1 | – | – | patients, plasma | oral, 250 mg twice daily, day 1, 500 per day | Cmax | 2540 ng/mL
CC[C@H](CO)N(CCN(N=O)[C@H](CC)CO)N=O | Salmonella typhimurium | plate incorporation | TA1535, water | 150 µg/plate, without S9 test 2 | revertant colonies per plate | 22.3 ± 4
COc1cc2c3c(n(CCCN4CCOCC4)c(=O)c2cc1OC)-c1cc2c(cc1C3=O)OCO2 | – | – | beagle dog, female, plasma | intravenous infusion, 50 mg/m^2, 1 h infusion, vehicle 1 | Cmax | 275 ± 43 ng/mL
CC(C)C[C@H](NC(=O)C[C@H](O)[C@H](CC(C)C)NC(=O)[C@H](Cc1c[nH]cn1)NC(=O)CNC(=O)[C@@H](NC(=O)[C@H](C)NC(=O)[C@H](Cc1c[nH]c2ccccc12)NC(=O)[C@H](CCC(N)=O)NC(=O)[C@@H](Cc1ccccc1)NC(=O)COCCOCCNC(=O)CCC(C(=O)O)N1CCN(CC(=O)O)CCN(CC(=O)O)CCN(CC(=O)O)CC1)C(C)C)C(N)=O (stereo partly drawn) [lutetium-177 labelled] | – | – | BALB/c nu/nu mice, kidneys | intravenous, 100 pmol, 1 h, added: PA 300 µg | tissue uptake | 4.2 ± 0.6 %ID/g
CCc1nc(C(N)=O)c(Nc2ccc(N3CCC(N4CCN(C)CC4)CC3)c(OC)c2)nc1NC1CCOCC1 | – | – | Japanese patients, plasma | oral, 80 mg, cycle 1 day 28, multiple doses, mean | Cmax | 206 ng/mL

For quick reference, copied from above:
Structure (SMILES) | tested on | assay | test system | setting | endpoint | result
COCCOc1cnc2ccn([C@H](C)c3nnc4c(F)cc(-c5cnn(C)c5)cn34)c(=O)c2c1 | – | – | patients, plasma | oral, 250 mg twice daily, day 1, 500 per day | Cmax | 2540 ng/mL
CC[C@H](CO)N(CCN(N=O)[C@H](CC)CO)N=O | Salmonella typhimurium | plate incorporation | TA1535, water | 150 µg/plate, without S9 test 2 | revertant colonies per plate | 22.3 ± 4
COc1cc2c3c(n(CCCN4CCOCC4)c(=O)c2cc1OC)-c1cc2c(cc1C3=O)OCO2 | – | – | beagle dog, female, plasma | intravenous infusion, 50 mg/m^2, 1 h infusion, vehicle 1 | Cmax | 275 ± 43 ng/mL
